Measurements collected from several papers.
Compare with care: the assays were run in different laboratories. “And” joins repeats or separate records; there may be more than shown. Numbers after ± are the reported error. Converted amounts (≈) assume the structure as drawn.

CCN(CC)c1ccc2c(c1)O[B-]1(c3ccccc3)OC(=O)C(c3ccccc3)=N[N+]1=C2 (centres unmarked)
hydrolysis activation energy (UV/vis decay; aqueous buffer): 20.8 kcal/mol

Cc1ccc(S(=O)(=O)Oc2nc3nc4ccccc4nc3nc2OS(=O)(=O)c2ccc(C)cc2)cc1
hydrodynamic radius (dynamic light scattering; buffer; 20 µM): 2.31 nm

CCCC[C@H](NC(=O)CNC(=O)CNC(=O)[C@H](CCCCNC(=O)[C@H](CC(=O)O)NC(=O)C(C)c1ccc(CC(C)C)cc1)NC(=O)CN1CCN(CC(=O)O)CCN(CC(=O)O)CCN(CC(=O)O)CC1)C(=O)N[C@H]1CC(=O)NCCCC[C@@H](C(N)=O)NC(=O)[C@H](Cc2c[nH]c3ccccc23)NC(=O)[C@H](CCCNC(=N)N)NC(=O)[C@@H](Cc2ccccc2)NC(=O)[C@H](Cc2c[nH]cn2)NC1=O (some centres unmarked) [lutetium-177 labelled]
tumour-to-tissue ratio (C57 mice, tumour; intravenous, 0.037 MBq, 24 h; baseline: blood): 120

C=C[C@]1(C)C[C@@H](OC(=O)CSc2ccc(NC(=O)c3ccco3)cc2)[C@]2(C)[C@H](C)CC[C@]3(CCC(=O)[C@H]32)[C@@H](C)[C@@H]1O
plasma concentration (Mycoplasma gallisepticum-infected chickens, plasma; intramuscular, 80 mg/kg, 6 h): 438 ng/mL and 227 ng/mL and 293 ng/mL and 795 ng/mL and 759 ng/mL and 355 ng/mL and 209 ng/mL and 427 ng/mL

Cc1ccc(OCC(=O)N(Cc2cccs2)c2ccn[nH]2)cc1
remaining compound (monkey plasma; 750 ng/mL, 0.25 h, 37 °C, unit not given; baseline: time zero): 102

C=Cc1ccccc1[B-]12OC(=O)C(c3ccccc3)=N[N+]1=C(C)c1ccc(N(CC)CC)cc1O2 (centres unmarked)
hydrolysis activation energy (UV/vis decay; aqueous buffer): 23.5 kcal/mol

C=CC(=O)Nc1cc(Nc2nccc(-c3cn(C)c4ccccc34)n2)c(OC)cc1N(C)CCNC
recovery (storage stability; human dried blood spots; 24 h, on ice, medium QC level): 76.8%

C/C(N)=N/C(=N\S(=O)(=O)c1ccc(C(F)(F)F)cc1)N1C[C@H](c2ccccc2)C(c2ccc(Cl)cc2)=N1
half-life (female cynomolgus monkey, plasma; oral, 6 mg/kg): 11.4 h

COc1ccc(Nc2nc(Nc3ccc(OCCOCCOCC[18F])cc3)ncc2Br)cc1
uptake ratio (ICR mice, S180 tumour; intravenous, 370 kBq, 5 min; baseline: tumour over bone): 0.98

N[C@@H](CC(=O)O)C(=O)OC(C(=O)O)c1ccc(Br)cc1[N+](=O)[O-] (mixture of isomers)
hydrolysis half-life, A isomer (1H NMR, dark; 50 mM sodium phosphate; concentration not given, pH 7.0, room temperature, 12.5% DMSO-d6): 10.2 ± 0.1 h

CN(C)C(=O)c1ccnc(N2Cc3cn(Cc4cc(F)cc(F)c4)nc3C2)n1
half-life (metabolic stability; human, liver microsomes): > 16.7 h

O=C(Nc1cnccc1-c1ccc([18F])cc1)c1ccnc(NC(=O)C2CC2)c1
SUV (ex vivo gamma counting; GSK-3β transgenic mice, late-stage, cerebellum; intravenous, 1.26 MBq/animal, 120 min, mean, no P-gp inhibitor): 0.14

CCCCN1C(=O)c2cccc3c(NCCCCN4CCOCC4)ccc(c23)C1=O
fluorescence quantum yield (1,4-dioxane): 0.48

CCOC(=O)C(CC)(CCCSCCCCCCN)NC(=O)c1ccc(C2CC2)c(Cc2ccc(F)cc2)n1 (centres unmarked)
kinetic solubility (aqueous buffer with DMSO): 0.3 µg/mL (≈ 0.538 µM)

CN(O)C(=O)CCC(=O)NCCCN(CCCCN(CCCNC(=O)CCC(=O)N(C)O)C(=O)CCC(=O)N(C)O)C(=O)CCC(=O)N(C)O.[89Zr]
intact complex (radio-TLC; aqueous buffer; 5 d, pH 7, 37 °C, 89Zr-labelled complex, added: DTPA 1000-fold excess): 92.9 ± 0.9%

COc1cc(N2CCN(C(=O)C3CCCN3)CC2)ccc1Nc1ncc(Cl)c(Nc2ccccc2P(C)(C)=O)n1 (centres unmarked)
body weight (nude mice, NCI-H3122 xenograft; oral, dose not given, day 3): 22.9 g and 24.7 g and 23.4 g and 23.6 g

COc1ccc2c(c1)CCn1c[n+]3c(c1-2)-c1ccc(OC)cc1CC3
mean corpuscular volume (female NSG mice, blood; 6 mg/kg, day 7, 5 days per week): 48.05 ± 0.2 fL

Cc1cc(-c2ccc(C(=O)[C@@H]3CCCC[C@H]3C(=O)Nc3cnn4c3C(=O)NCC4)cc2)[nH]n1
cumulative recovery of radioactivity (human, urine; oral, 200 mg, 0-216 h; baseline: dose): 5.9%

COC1CN([C@H]2CC[C@H]([C@@]3(C)Oc4c(Cl)cc(C(=O)NCc5c(SC)cc(C)[nH]c5=O)c(C)c4O3)CC2)C1
log2 fold change (RNA-seq, measured: MAGI2 mouse homolog; mouse, HT-1376 xenograft, whole blood; dose not given; baseline: vehicle): 0.491

[123I]c1ccc2nc(-c3ccc(-n4ccnn4)nc3)cn2c1
tracer uptake (male Wistar rat, kidney; intravenous, 4 MBq, 3 h): 0.105 %ID/g

O=C(NC1CCCC1)c1ccnc(N2Cc3cn(Cc4ccc(F)cc4)nc3C2)n1
half-life (metabolic stability; human, liver microsomes): 0.15 h

CC(C)(O)c1ncc([S@](N)(=O)=NC(=O)Nc2c3c(cc4c2CCC4)CCC3)s1
subjects with adverse events (measured: general and administration-site disorders; healthy human volunteers; oral, 100 mg single dose, capsule formulation): 50%

Cc1nc(N)nc2c1C(=O)N[C@@H](c1ccc(F)cc1-c1cccc(O[11CH3])n1)C2
tracer uptake (ex vivo biodistribution; healthy mice, bone; 60 min post-injection, baseline, vehicle pre-treatment): 14.7 ± 13.1 %ID

Cc1nn(-c2nc3c(F)cc(F)cc3s2)c(O)c1C(c1ccc(C(F)(F)F)cc1)c1c(C)nn(-c2nc3c(F)cc(F)cc3s2)c1O
plasma concentration (male ICR mouse, plasma; intraperitoneal, 10 mg/kg, 0.05 h): 19.1 ng/mL and 34.6 ng/mL and 40.9 ng/mL

CN1CCC[C@]1(C)/C=C/S(=O)(=O)NC(=O)Nc1c2c(cc3c1C(O)CC3)CCC2 (some centres unmarked)
AUC(0-24) (human, plasma; oral, 50 mg twice daily of parent drug, day 1, metabolite of dosed drug): 140000 ng·h/mL

N#Cc1ccnc(N2C(=O)CC[C@H]2C(=O)N(c2cncc(F)c2)[C@H](C(=O)NC2CC(F)(F)C2)c2ccccc2Cl)c1
metabolic stability (dog liver microsomes): stable

O=C(O)CCCCC1(N(CC(=O)O)CC(=O)O)CN(CC(=O)O)CCN(CC(=O)O)C1
protonation constant (log) (pH-potentiometry, measured: logK2H; 0.15 M NaClO4; 25 °C): 6.85

CC[C@H](C)[C@H](NC(=O)[C@@H](NC(=O)[C@H](CCCCN)NC(=O)[C@@H](NC(=O)[C@@H]1CCCN1[C@@H]1CN(C(=O)[C@@H](NC(=O)[C@@H](NC(=O)[C@@H](NC(=O)[C@@H](NC(=O)[C@@H](NC(=O)[C@@H](N)CCCCN)C(C)C)C(C)C)C(C)C)[C@@H](C)CC)[C@@H](C)O)CC[C@H]1NS(=O)(=O)c1ccc(C)cc1)[C@@H](C)O)C(C)C)C(=O)N[C@@H](CC(C)C)C(=O)N[C@@H](Cc1c[nH]cn1)C(N)=O
beta-sheet content (CD spectroscopy; 20 mM phosphate buffer; 125 µM, 20 °C): 29.5%

CN1CCC[C@]1(C)/C=C/S(=O)(=O)NC(=O)Nc1c2c(cc3c1CCC3)CCC2
subjects with adverse event (measured: gastrointestinal disorders; human; oral, 12.5 mg twice daily, 14 days, multiple ascending dose): 0%

CC[C@H](C)[C@@H](C(=O)N[C@@H](CC(C)C)C(=O)N[C@@H](CO)C(=O)N[C@@H](CO)C(=O)N[C@H](C(=O)N[C@@H](CCC(=O)O)C(=O)N[C@H](C(=O)NCC(=O)N[C@@H](CO)C(=O)N[C@@H](CC(N)=O)C(=O)N[C@H](C(=O)N1C[C@H](O)C[C@H]1C(N)=O)[C@@H](C)O)C(C)C)[C@@H](C)O)N(C)C(=O)[C@H](C)NC(=O)CN(C)C(=O)[C@H](Cc1ccccc1)NC(=O)[C@H](CO)NC(=O)[C@H](CO)NC(=O)[C@H](CCCNC(=N)N)NC(=O)[C@H](CCC(N)=O)NC(=O)[C@H](CC(C)C)NC(=O)[C@H](Cc1ccccc1)NC(=O)[C@H](CCCC(=O)O)NC(=O)[C@H](C)NC(=O)[C@H](CC(C)C)NC(=O)[C@H](CCCNC(=N)N)NC(=O)[C@H](CCC(=O)O)NC(=O)[C@@H](NC(=O)[C@H](C)NC(=O)[C@@H]1CCCCNC(=O)C[C@H](NC(=O)[C@H](CCCNC(=N)N)NC(=O)CC[C@H](NC(=O)CCCCCCCCCCCCCCCCCCC(=O)O)C(=O)O)C(=O)NCC(=O)N[C@@H]([C@@H](C)O)C(=O)N[C@@H](C)C(=O)N[C@@H]([C@@H](C)O)C(=O)N1)[C@@H](C)O
particle size (DLS; histidine buffer, mannitol, NaCl; pH 6.1, 25 °C): 1.8 to 3.9 nm

C=C(NC(=O)c1csc(-c2nc3c(cc2O)-c2nc(cs2)C(=O)NC(C(C)O)C(=O)NC(=C(C)OC)c2nc(cs2)C(=O)NC2c4nc(cs4)C(=O)NC(COC(=O)c4c5c6c(cccc6n4O)COC(=O)C(OC4CC(C)(O)C(N(C)C)C(C)O4)C2OC5)c2nc-3cs2)n1)C(N)=O (centres unmarked)
AUC(0-inf) (ICR mice, Streptococcus pneumoniae ATCC 49169 infected, immunocompromised, blood; intravenous, 2 mg/kg/day twice daily): 175 ng·h/mL

O=C(O)CCCOc1ccc([18F])cc1-c1cc(-c2ccccc2C(F)(F)F)n(-c2ccccc2)n1
peak radioactivity (mouse, liver; dose not given, immediately after administration): 12.3 %ID/organ

O=C(NS(=O)(=O)c1cccs1)c1cc2ccccc2n1Cc1ccc(Br)c2ccccc12
plasma concentration (Sprague-Dawley rat, male; oral, dose not given, 4 h): 1320 ng/mL

CC(=O)N([O-])CCCCCNC(=O)CCC(=O)N([O-])CCCCCNC(=O)CCC(=O)N([O-])CCCCCN.[89Zr+4]
intact complex (radio-TLC; aqueous buffer; 7 d, pH 8.5, 37 °C, 89Zr-labelled complex, added: DTPA 100-fold excess): 88.9 ± 0.3%

CN1CCC[C@]1(C)/C=C/S(=O)(=O)NC(=O)Nc1c2c(cc3c1CC(O)C3)CCC2 (some centres unmarked)
AUC(0-24) accumulation ratio (human, plasma; oral, 50 mg twice daily of parent drug, metabolite of dosed drug; baseline: day 14 over day 1): 1.5

C=CC(=O)Nc1cc(Nc2nccc(-c3c[nH]c4ccccc34)n2)c(OC)cc1N(C)CCN(C)C
recovery (storage stability; human plasma; 2 h, on ice, MQC level): 92.7%

O=C(Nc1cnccc1-c1ccc([18F])nc1)c1ccnc(NC(=O)C2CC2)c1
SUV (mice, transgenic, GSK-3β, early-stage, large intestine; intravenous, dose not given, 120 min): 0.83

Cc1noc(C)c1Cn1cc(N2C(=O)CN(Cc3cccc(O[C@@H]4O[C@H](C(=O)O)[C@@H](O)[C@H](O)[C@H]4O)c3)C2=O)cn1
plasma concentration (Sprague-Dawley rat, male; oral, 10 mg/kg of parent drug, 8 h): 32 ng/mL

Some of these lines once more:
Cc1ccc(S(=O)(=O)Oc2nc3nc4ccccc4nc3nc2OS(=O)(=O)c2ccc(C)cc2)cc1
hydrodynamic radius (dynamic light scattering; buffer; 20 µM): 2.31 nm

CC(C)(O)c1ncc([S@](N)(=O)=NC(=O)Nc2c3c(cc4c2CCC4)CCC3)s1
subjects with adverse events (measured: general and administration-site disorders; healthy human volunteers; oral, 100 mg single dose, capsule formulation): 50%

COC1CN([C@H]2CC[C@H]([C@@]3(C)Oc4c(Cl)cc(C(=O)NCc5c(SC)cc(C)[nH]c5=O)c(C)c4O3)CC2)C1
log2 fold change (RNA-seq, measured: MAGI2 mouse homolog; mouse, HT-1376 xenograft, whole blood; dose not given; baseline: vehicle): 0.491

Cc1ccc(OCC(=O)N(Cc2cccs2)c2ccn[nH]2)cc1
remaining compound (monkey plasma; 750 ng/mL, 0.25 h, 37 °C, unit not given; baseline: time zero): 102
